Measured values of several laboratories.
Numbered parts are unrelated; each lists some results of a single study.

Block 1
Target: RING finger protein unkempt homolog, zinc fingers 1-6, SBP tag (UNK, Homo sapiens, UniProt Q9C0B0, residues 30-357)
Sequence of UniProt Q9C0B0 (30-357, looked up): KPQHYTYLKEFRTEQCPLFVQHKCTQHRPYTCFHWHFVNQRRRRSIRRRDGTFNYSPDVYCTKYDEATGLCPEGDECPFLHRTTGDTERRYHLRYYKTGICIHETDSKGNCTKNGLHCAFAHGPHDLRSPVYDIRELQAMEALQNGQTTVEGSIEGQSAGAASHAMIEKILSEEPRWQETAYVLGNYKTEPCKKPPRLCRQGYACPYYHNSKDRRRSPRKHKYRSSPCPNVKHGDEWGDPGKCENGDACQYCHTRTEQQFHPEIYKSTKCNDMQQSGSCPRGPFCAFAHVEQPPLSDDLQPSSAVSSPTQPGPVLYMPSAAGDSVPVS
Technique: RNA Bind-n-Seq
Form: RNA
Sample: in vitro
Concentration: 100 nM
Setting: RNA with constant flanks, vertebrate orthologous sites, ends assumed
Baseline: input RNA pool
Reading: higher = stronger binding
Constant ends, left off below: GGGAGUUCUACAGUCCGACGAUC … CAACAGAGGAUUGAGCAUCA
Sequence | bound/input enrichment [ratio]
AGUAGUUUUAAGCUUGUUUGCACAGUUCUUUUUUUCCAUUGGAAAUGGAAUUCAUUGCCUUAGGUCUUUUUAAAUAGUGUUAUAUUAUCGUUGGGGCUGGCUCUAUGCUUGAAAACCAGU | 4.09
GUGACUUUGGGCGUCCGCUCAACCUCUGUGAGGAGAGUUUUUGGUCUGUGGCCUGGCAGACUUGUUUAGUGCUUUCGGACCCGAGUCCUCCACCGUAAACAUGCUCCGCCAGAUCCUGGG | 0.2
UACUAGUGUCACACCAGCAUACUCACUGCUCCUUUGUACACAGCUUCCAAUCAACACUCUAGUUGUAUUUUUUUAAUUUAAACUAUGAAAUACUGCUUUUCCCAAGACUUUGAAAAAGAU | 0.969
UCUGCCGUCCCCGCGAGCCGCGCGGCGCGGUCCCGUCUUCAGCGUCCUCUCUUUCCUGUCCUCGGGGUGGGGGUGGGGUGUGGCUCACGGCGCAGCGGCGCGAGCUCGUGUGGUUGGUUC | 0.387
GAACCUGUGUGCUGUGUGCGCUGUUGGCCACGUGGCGUCGUUUGAUUUGUGAUCUUGACAUAAUAGAUAGGCUUGUGGUUUUUUAAUUUAAAGAUAUUAAGACUUAAUUCACUAAAAUUU | 0.427
AUCUCUCAUUUUCUAUGUCCAAAAAAGGUUUUGAAUUUUUAAAUAAUUGCUAGUUUUGAUUAGCUUUGCCCUCAUGAAGUAUUAUUAUAAUCCCCACAAACAGAUAUCUGUCUGAAUUAC | 0.815
AGGUUGGGGGAAACACUCCAUGUUAGUACCAAGAGCAGUCACUUGGGCUAAAUCUGACAUCAUGACUCCCCAAGGGCACUUCCCACUUUGAGUAGGAUCUGACUAGCCUCUCAGAUUUGC | 0.165
CCUCUAAACCCCAUUUCUUCUGUUUCAUAGUGUAGAAGUAUUCUUUUUCAGUUAUAUUAUUAGUGGACUUGUUUUAAUUUUAGGGAAAAUUUCAGUACAGAUACUGUGAGCUUACAUGGA | 1.31
AAUUGAACAAACACGUUUCCACUGGGUUUUGCCUGUAAGAAAAAAAUGUACCCGAGCACAUAGAGCUUUUUAAUAGCACUAACCAAUGCCUUUUUAGAUGUAUUUUUGAUGUAUAUAUCU | 0.626
GUCCCUCAGUGACAGUAUGCCGUCCGUAGCAGAUUCCCACUCUAGUCACUUUUCUGAGUUUAGUUGUUCUGACCUAGAAAGCAUGAAAACUUCUUGUAGUCAUGGUUCCACUGAUUAUCA | 1.01

Block 2
Target: Interferon regulatory factor 7, full length, phosphomimetic (IRF7, Homo sapiens, UniProt Q92985, residues 1-503, S471D/S472D/S475D/S476D/S477D/S483D/S484D/S487D)
Sequence of UniProt Q92985 (whole entry, unmodified, looked up): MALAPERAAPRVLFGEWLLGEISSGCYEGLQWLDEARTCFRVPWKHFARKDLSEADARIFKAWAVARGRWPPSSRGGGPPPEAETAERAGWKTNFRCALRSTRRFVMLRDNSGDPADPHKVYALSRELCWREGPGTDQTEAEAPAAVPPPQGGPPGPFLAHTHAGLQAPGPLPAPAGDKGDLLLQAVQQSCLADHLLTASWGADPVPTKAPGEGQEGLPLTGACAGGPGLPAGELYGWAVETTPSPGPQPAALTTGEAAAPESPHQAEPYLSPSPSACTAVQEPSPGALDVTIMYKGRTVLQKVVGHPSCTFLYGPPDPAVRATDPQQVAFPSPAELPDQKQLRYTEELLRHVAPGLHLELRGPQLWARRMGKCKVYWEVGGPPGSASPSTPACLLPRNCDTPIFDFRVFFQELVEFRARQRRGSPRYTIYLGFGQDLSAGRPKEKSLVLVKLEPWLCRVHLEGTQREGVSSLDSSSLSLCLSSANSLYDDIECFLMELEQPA
Technique: protein-binding microarray
Form: double-stranded DNA, one strand shown
Sample: in vitro
Concentration: 2200 nM top
Setting: 60-bp whole probe
With: salmon DNA 0.4 mg/ml
Baseline: random background probes
Reading: higher = stronger binding
Constant ends, left off below: GCCTAGCAC … GTCTTGATTCGCTTGACGCTGCTG
Sequence | fitted relative affinity [z-score]
TTAGGTCTTCTACTGCTTTAGTGCTAG | 0.727
TTAGGACTGGGTCTCGGTTAGTGCTAG | -0.233
GACCAACTGGGGTTTCGAGACGTGCTA | 0.664
GACGGTATCTTACTGCTGACGTGCTAG | 0.388
GACTATTTCGGGTTTCGAGACGTGCTA | 4.44
GACGATTTCAGTTTCGAGACGTGCTAG | 5.68
GACGATTTCAGCCTGGAGACGTGCTAG | 0.516
TTAGGTGTCCTTATCCTTTAGTGCTAG | 0.786
TCAGTCTTCAGGTTCTCACTGTGCTAG | 1.35
GACGATCTCAGTCTCGAGCCGTGCTAG | 0.0116

Block 3
Target: PABPC1L2, full length, GST fusion (mouse, UniProt A0ABA7IW68)
Technique: RNAcompete
Form: RNA
Sample: in vitro
Concentration: 20 nM
Setting: 7-mer, probes averaged, single round
Baseline: mean of 7-mers
Reading: higher = stronger binding
Residues (chain): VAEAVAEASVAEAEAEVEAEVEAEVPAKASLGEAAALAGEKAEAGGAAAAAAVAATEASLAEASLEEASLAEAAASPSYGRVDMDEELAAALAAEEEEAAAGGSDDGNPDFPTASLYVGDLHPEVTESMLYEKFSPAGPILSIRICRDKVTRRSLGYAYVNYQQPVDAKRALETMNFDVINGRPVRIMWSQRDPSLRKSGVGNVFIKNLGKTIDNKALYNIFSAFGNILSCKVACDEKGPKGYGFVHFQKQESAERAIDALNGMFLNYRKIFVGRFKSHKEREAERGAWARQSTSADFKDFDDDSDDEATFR
Sequence | 7-mer Z-score
GCAGGAA | 0.316
GUAGGUG | 0.109
AGUGGUA | -0.0409
GACCCCU | -0.385
UACGGUU | 0.0134
UCUAUUG | -0.287
GUAGUUC | -0.311
GGCAGUU | 0.117
AUCCGUC | -0.362

Mixed results
Substance | target | test | test system | setting | how to read | quantity | result
PhoQ, residues 284 288 289 292 302 303 TSTLRA | PhoP, residues 12 14 15 18 19 VQALL (Escherichia coli, UniProt P23836) | Sort-seq, refers to: YFP reporter | E. coli | PhoQ-PhoP variant library, with: 10 µM Mg2+ | baseline: high Mg2+ state, higher = stronger signaling | fold induction | 16.3

Repeated from above (block 3):
Sequence | 7-mer Z-score
AGUGGUA | -0.0409
UCUAUUG | -0.287
